Results collected from several papers.
Several values in a cell are separate wells, animals, samples, runs or records. ± gives the spread as reported.
CXCR4: C-X-C chemokine receptor type 4 (CXCR4, Homo sapiens, UniProt P61073)
Seed linoleate 13S-lipoxygenase-1: Seed linoleate 13S-lipoxygenase-1 (Glycine max, UniProt P08170)
UniProt P08170, sequence (whole entry, looked up): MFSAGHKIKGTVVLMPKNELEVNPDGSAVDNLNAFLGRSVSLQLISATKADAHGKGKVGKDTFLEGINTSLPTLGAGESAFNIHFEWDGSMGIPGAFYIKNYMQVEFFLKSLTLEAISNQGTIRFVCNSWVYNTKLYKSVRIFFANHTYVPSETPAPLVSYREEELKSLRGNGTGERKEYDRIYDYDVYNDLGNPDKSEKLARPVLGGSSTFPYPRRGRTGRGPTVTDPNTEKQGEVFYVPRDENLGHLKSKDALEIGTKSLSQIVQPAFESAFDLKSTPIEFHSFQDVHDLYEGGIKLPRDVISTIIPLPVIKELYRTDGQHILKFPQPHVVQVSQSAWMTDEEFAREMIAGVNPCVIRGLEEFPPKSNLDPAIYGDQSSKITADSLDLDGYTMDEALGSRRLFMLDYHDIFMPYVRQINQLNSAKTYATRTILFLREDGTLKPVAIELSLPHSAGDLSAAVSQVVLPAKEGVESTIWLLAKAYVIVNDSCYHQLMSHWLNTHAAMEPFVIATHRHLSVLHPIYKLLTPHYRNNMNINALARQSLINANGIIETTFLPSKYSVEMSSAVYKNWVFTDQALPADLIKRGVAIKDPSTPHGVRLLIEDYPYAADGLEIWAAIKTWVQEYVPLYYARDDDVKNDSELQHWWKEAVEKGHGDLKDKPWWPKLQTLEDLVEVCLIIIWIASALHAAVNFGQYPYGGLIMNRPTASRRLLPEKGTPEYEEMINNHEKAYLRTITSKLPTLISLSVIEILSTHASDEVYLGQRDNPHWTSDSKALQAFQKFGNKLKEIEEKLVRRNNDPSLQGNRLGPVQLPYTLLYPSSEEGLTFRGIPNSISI
TPR: Trypanothione reductase (TPR, Trypanosoma brucei brucei, UniProt P39051)
UniProt P39051, sequence (whole entry, looked up): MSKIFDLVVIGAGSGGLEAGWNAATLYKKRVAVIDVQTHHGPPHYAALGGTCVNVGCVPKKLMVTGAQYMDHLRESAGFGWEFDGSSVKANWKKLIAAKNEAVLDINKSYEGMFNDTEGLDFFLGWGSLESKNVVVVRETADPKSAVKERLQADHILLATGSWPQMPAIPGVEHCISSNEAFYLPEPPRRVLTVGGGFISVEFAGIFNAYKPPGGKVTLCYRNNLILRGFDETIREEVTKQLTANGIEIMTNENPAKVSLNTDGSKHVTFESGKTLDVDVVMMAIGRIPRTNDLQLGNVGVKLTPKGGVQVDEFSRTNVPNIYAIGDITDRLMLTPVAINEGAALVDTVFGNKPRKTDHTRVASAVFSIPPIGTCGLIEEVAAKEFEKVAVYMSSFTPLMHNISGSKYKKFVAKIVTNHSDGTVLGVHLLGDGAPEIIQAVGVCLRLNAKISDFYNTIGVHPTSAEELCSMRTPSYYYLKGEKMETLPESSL
EPHB2: Ephrin type-B receptor 2 (EPHB2, Homo sapiens, UniProt P29323)
UniProt P29323, sequence (whole entry, looked up): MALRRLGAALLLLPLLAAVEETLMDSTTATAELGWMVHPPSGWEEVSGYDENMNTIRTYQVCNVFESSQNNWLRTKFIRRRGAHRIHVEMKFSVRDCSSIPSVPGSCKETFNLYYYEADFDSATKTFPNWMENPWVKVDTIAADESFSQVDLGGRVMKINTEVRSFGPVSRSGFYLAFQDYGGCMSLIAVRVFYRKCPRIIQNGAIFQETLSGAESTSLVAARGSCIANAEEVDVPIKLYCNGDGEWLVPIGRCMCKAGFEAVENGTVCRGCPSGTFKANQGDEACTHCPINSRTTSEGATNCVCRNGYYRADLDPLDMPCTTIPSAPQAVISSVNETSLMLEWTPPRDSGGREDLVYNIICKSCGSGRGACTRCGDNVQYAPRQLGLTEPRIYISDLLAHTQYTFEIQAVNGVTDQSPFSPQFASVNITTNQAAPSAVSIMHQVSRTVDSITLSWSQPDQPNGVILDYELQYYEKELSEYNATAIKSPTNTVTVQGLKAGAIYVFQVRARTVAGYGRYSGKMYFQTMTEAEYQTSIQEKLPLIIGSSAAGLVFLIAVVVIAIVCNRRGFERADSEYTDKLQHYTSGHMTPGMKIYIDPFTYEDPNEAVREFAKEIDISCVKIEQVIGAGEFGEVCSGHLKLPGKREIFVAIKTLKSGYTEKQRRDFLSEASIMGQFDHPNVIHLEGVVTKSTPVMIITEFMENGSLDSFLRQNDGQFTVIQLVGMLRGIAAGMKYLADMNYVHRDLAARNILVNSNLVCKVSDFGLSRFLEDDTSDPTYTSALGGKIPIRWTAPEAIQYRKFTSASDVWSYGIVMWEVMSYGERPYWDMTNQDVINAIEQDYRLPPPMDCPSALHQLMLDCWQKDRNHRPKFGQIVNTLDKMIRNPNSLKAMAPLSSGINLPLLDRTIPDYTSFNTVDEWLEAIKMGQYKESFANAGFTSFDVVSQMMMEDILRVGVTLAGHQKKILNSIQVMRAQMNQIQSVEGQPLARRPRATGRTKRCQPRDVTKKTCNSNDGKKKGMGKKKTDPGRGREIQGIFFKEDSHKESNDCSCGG
CD38: ADP-ribosyl cyclase/cyclic ADP-ribose hydrolase 1 (CD38, Homo sapiens, UniProt P28907)
UniProt P28907, sequence (whole entry, looked up): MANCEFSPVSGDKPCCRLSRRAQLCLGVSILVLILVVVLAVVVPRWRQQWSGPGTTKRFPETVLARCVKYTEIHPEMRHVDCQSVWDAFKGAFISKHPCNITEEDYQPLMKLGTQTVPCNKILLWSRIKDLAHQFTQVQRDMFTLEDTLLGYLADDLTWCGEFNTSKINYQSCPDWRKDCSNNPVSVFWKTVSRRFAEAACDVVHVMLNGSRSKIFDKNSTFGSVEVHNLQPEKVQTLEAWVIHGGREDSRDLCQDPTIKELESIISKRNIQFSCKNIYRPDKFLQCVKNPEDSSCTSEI
PIM1: Serine/threonine-protein kinase pim-1 (PIM1, Homo sapiens, UniProt P11309)
UniProt P11309, sequence (whole entry, looked up): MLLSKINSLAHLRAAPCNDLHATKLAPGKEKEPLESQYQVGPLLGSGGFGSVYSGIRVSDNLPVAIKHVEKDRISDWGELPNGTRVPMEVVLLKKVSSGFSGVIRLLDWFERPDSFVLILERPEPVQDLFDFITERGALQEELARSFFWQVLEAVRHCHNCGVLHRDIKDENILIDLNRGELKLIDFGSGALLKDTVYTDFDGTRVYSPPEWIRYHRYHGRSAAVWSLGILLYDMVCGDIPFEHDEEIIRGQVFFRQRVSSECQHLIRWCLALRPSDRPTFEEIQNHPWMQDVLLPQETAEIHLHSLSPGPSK
UniProt P51812, sequence (whole entry, looked up): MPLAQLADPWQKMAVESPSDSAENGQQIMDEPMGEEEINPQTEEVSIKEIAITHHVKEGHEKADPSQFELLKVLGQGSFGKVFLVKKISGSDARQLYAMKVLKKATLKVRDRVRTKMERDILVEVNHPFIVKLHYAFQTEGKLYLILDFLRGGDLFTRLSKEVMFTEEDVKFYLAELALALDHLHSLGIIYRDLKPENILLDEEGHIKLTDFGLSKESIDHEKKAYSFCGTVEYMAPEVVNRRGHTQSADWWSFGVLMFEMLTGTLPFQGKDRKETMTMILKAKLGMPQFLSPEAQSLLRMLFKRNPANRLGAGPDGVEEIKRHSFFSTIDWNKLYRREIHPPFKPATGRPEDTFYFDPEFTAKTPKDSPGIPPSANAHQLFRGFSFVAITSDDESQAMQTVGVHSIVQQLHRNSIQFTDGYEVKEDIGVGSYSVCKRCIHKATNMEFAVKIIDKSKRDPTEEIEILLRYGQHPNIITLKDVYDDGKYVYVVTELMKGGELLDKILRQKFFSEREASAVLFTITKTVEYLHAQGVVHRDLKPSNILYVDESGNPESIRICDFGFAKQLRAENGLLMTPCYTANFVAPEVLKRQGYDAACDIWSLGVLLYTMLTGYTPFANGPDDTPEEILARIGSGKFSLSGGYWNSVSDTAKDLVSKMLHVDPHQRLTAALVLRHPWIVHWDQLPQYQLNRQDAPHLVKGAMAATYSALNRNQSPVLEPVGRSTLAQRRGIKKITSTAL
UniProt P33261, sequence (whole entry, looked up): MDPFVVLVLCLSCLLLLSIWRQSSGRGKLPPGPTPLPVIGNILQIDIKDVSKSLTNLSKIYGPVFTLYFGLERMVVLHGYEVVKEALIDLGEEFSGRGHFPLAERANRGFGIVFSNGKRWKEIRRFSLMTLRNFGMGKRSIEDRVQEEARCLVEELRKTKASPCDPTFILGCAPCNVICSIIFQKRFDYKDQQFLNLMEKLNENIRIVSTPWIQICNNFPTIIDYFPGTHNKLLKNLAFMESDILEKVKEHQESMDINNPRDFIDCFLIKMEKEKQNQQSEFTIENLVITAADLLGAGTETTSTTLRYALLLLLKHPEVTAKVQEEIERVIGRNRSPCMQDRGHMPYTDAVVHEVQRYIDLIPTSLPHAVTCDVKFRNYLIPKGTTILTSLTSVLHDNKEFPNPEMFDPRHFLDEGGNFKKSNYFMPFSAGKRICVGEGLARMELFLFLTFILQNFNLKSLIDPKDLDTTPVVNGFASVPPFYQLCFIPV
UniProt Q96KS0, sequence (whole entry, looked up): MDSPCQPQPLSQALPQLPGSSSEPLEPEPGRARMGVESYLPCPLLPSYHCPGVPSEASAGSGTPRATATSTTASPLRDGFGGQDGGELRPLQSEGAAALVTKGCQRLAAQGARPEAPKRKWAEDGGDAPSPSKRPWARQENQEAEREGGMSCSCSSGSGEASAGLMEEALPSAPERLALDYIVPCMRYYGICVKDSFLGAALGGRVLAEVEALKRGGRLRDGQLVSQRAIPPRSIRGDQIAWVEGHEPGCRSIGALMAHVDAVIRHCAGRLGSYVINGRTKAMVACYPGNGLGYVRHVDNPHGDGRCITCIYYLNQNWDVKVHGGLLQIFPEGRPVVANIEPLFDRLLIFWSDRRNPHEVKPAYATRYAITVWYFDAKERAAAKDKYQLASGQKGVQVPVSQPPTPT
UniProt P30969, sequence (whole entry, looked up): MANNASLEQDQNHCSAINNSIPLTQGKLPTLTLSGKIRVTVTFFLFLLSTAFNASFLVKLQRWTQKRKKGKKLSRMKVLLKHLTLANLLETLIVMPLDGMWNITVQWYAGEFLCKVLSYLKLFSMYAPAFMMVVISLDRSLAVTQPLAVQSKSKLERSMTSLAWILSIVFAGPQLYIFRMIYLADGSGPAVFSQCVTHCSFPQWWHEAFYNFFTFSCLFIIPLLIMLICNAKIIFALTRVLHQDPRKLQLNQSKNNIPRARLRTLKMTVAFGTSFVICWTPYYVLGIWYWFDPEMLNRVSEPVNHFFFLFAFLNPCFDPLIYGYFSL

[64Cu+2].c1cnc(CNCc2ccc(CN3CCCN4CCNCCCN(CC4)CC3)cc2)nc1 — tissue uptake (CXCR4; NOD/SCID mice, U87 xenografts, U87-stb-CXCR4 tumour; 90 min post-injection): 36.1 ± 4.84 %ID/g
CCn1c(SC(C)C(=O)Nc2ccc(C)c(C)c2)nnc1C1CCN(C(=O)Nc2ccccc2)CC1 (stereo not shown) — IC50 (Seed linoleate 13S-lipoxygenase-1; enzyme activity, inhibitor): < 16 µM and 12.1 µM
CC(C)(C)NCCCNC(=O)c1ccnc(Br)c1 — IC50 (PHD finger protein 23 (PHF23, Homo sapiens, UniProt Q9BUL5); methyl-lysine reader binding, inhibitor, AlphaScreen): > 100 µM
CCCc1nn(-c2ccccc2)c(O)c1-c1nc2ccccc2[nH]c1=O — IC50 (Tyrosine-protein kinase JAK2 (JAK2, Homo sapiens, UniProt O60674); enzyme activity, inhibitor, ADP detection): 0.0285 µM
Cc1ccc(-c2cc(C(=O)NCc3ccco3)c3cc(Br)ccc3n2)o1 — IC50 (TPR; inhibitor, DTNB-coupled colourimetric; added: substrate at Km): > 100 µM
CCN(c1nc(NCC(=O)O)nc(N2CCN(c3ccccc3C#N)CC2)n1)C1CCCCC1 — IC50 (Slit homolog 2 protein, with SLIT2 (SLIT2, Homo sapiens, UniProt O94813); inhibitor, TR-FRET): 225 µM
CNC(=O)C1CCN(c2cc(C)ccc2NC(=O)c2ccc(-c3cc(O)ccc3C)c(C)c2)CC1 — IC50 (EPHB2; target engagement in cells, BRET): 0.027 µM
O=c1c(-n2ccnc2)c[nH]n1-c1ccccn1 — IC50 (Prolyl hydroxylase EGLN2 (EGLN2, Homo sapiens, UniProt Q96KS0); enzyme activity, inhibitor, europium VBC binding; 10 µM FeSO4, 2 mM ascorbate, added: 20 µM 2-oxoglutarate): 0.98 µM
CC[C@H](C)[C@H](NC(=O)[C@H](Cc1ccc(O)cc1)NC(=O)[C@@H](NC(=O)[C@H](CCCN=C(N)N)NC(=O)CNC)C(C)C)C(=O)N[C@@H](Cc1c[nH]cn1)C(=O)N1CCC[C@H]1C(=O)N[C@H](C(=O)O)[C@@H](C)O — IC50 (Type-2 angiotensin II receptor (Rattus norvegicus, UniProt P35351); ligand displacement, radioligand; pH 7.4, cell membranes): 0.0003 µM
CCOC(=O)N1CCC(Oc2nc3c(c(=O)n(C)c(=O)n3C)n2CCC(C)C)CC1 — IC50 (Aldehyde dehydrogenase, mitochondrial (ALDH2, Homo sapiens, UniProt P05091); enzyme activity, inhibitor): > 57 µM
CC(C)C[C@H](NC(=O)[C@@H](Cc1c[nH]c2ccccc12)NC(=O)[C@H](Cc1ccc(O)cc1)NC(=O)[C@H](CO)NC(=O)[C@H](Cc1c[nH]c2ccccc12)NC(=O)[C@H](Cc1c[nH]cn1)NC(=O)[C@@H]1CCC(=O)N1)C(=O)N[C@@H](CCCNC(=N)N)C(=O)N1CCC[C@H]1C(=O)NCC(N)=O — IC50 (Gonadotropin-releasing hormone receptor (Rattus norvegicus, UniProt P30969); binding, radioligand displacement; WPE-1-NB26-3 expressing Gonadotropin-releasing hormone receptor, whole cells; added: radioiodinated GnRH analogue): 0.0009 ± 0.0003 µM
[64Cu+2].c1ccc(CNCc2ccc(CN3CCCN4CCNCCCN(CC4)CC3)cc2)nc1 — tissue uptake (CXCR4; NOD/SCID mice, U87 xenografts, U87-stb-CXCR4 tumour; 120 min post-injection): 18.2 ± 2.03 %ID/g
Cc1ccc(-c2cc(C(=O)NN3CCOCC3)c3cc(Br)ccc3n2)o1 — IC50 (TPR; inhibitor, DTNB-coupled colourimetric; added: substrate at Km): > 100 µM
COc1cccc(/C=C/C(=O)c2ccc(C)o2)c1OC — IC50 (Seed linoleate 13S-lipoxygenase-1; enzyme activity, inhibitor, absorbance): 79.5 µM
O=C1NC(=O)/C(=C\c2ccc(-c3ccc(C(F)(F)F)cc3)cc2)S1 — IC50 (CD38; enzyme activity, inhibitor, fluorescence): 42.7 µM
CC(=O)N[C@H]1[C@@H](OC(=O)NCCCOCCOCCOCCCNC(=O)O[C@H]2O[C@H](CNC(=O)OCCOCCOCCOCCOCCOCCOC(=O)NC[C@H]3O[C@H](OC(=O)NCCCOCCOCCOCCCNC(=O)O[C@H]4O[C@H](CO)[C@@H](O)[C@H](O)[C@H]4NC(C)=O)[C@H](NC(C)=O)[C@@H](O)[C@@H]3O)[C@@H](O)[C@H](O)[C@H]2NC(C)=O)O[C@H](CO)[C@@H](O)[C@@H]1O — IC50 (wheat germ agglutinin (Triticum vulgaris); binding to immobilised GlcNAc, inhibitor, enzyme-linked lectin; added: HRP-labelled WGA): 0.056 µM
N=C(CF)NCCC[C@H](NC(=O)c1ccc(/N=N\c2ccccc2)cc1)c1nc2ccccc2[nH]1 — IC50 (Protein-arginine deiminase type-2 (PADI2, Homo sapiens, UniProt Q9Y2J8); inhibitor, competitive ABPP; 2 h, 37 °C, 30 min preincubation, added: RFA probe 2 µM): 23.8 µM
CCC[C@@H]1O[C@@H](Oc2c(-c3ccc(O)cc3)oc3cc(O)cc(O)c3c2=O)[C@H](O)[C@H](O)[C@H]1NC(C)=O — IC50 (Ribosomal protein S6 kinase alpha-3 (RPS6KA3, Homo sapiens, UniProt P51812); enzyme activity, inhibitor): 0.76 µM
CC(=O)NCCN(CCC(=O)NCCN(CCC(=O)NCCN(CCC(=O)NCCC(N)=O)C(=O)[C@@H](N)Cc1ccccc1)C(=O)[C@@H](N)CCCNC(=N)N)C(=O)[C@@H](N)CCCNC(=N)N — IC50 (HIV-1 TAR RNA; Tat/TAR complex displacement, FRET; room temperature, added: 10 nM Tat/TAR complex): 5.4 ± 0.8 µM
Nc1ncnc2c1ncn2C1OC(COP(=O)(O)O)C(O)C1O (stereo not shown) — IC50 (Sensor histidine protein kinase/phosphatase WalK (walK, Streptococcus pneumoniae, UniProt Q8DPL8); enzyme activity, ATP-competitive inhibitor): 7150 µM
CNC(=O)c1cc(C)ccc1NC(=O)c1ccc(-c2cc(O)ccc2C)c(C)c1 — IC50 (EPHB2; target engagement in cells, BRET): 0.648 µM
CSc1ncc(-c2cc(-c3ccc(Br)cc3)[nH]c(=O)c2C#N)n1Cc1ccccc1 — IC50 (PIM1; enzyme activity, inhibitor): 0.115 µM and < 0.15 µM
NC(=O)[C@@H]1CCCN1C(=O)[C@H](Cc1cn(Cc2ccccc2)cn1)NC(=O)c1nccnc1N — IC50 (Thyrotropin-releasing hormone receptor (Mus musculus, UniProt P21761); ligand displacement, radioligand): > 50 µM
O=C(c1ccc(Br)c([N+](=O)[O-])c1)N1CCN(c2ccccc2F)CC1 — IC50 (SEC14 (Saccharomyces cerevisiae, UniProt P24280); enzyme activity, inhibitor, radiometric): 0.1 µM
CC(C)(C)c1cc(=O)n2ncc(-c3ccc(F)cc3)c2[nH]1 — IC50 (Chromodomain-helicase-DNA-binding protein 1-like (CHD1L, Homo sapiens, UniProt Q86WJ1); ATPase activity, inhibitor; 1 h, 37 °C, added: ATP 10 µM): 4.57 µM
CC(=O)NCCN(CC(=O)NCCN(CC(=O)NCCN(CC(=O)NCCC(N)=O)C(=O)C[C@@H](N)Cc1ccccc1)C(=O)C[C@@H](N)CCCNC(=N)N)C(=O)C[C@@H](N)CCCNC(=N)N — IC50 (HIV-1 TAR RNA; Tat/TAR complex displacement, FRET; room temperature, added: 10 nM Tat/TAR complex): 0.7 ± 0.1 µM
C[C@@H](c1ccn(Cc2ccc(Cl)cc2Cl)n1)[C@](O)(Cn1cnnn1)c1ccc(F)cc1F — IC50 (Cytochrome P450 2C19 (CYP2C19, Homo sapiens, UniProt P33261); enzyme activity, inhibitor; human, liver microsomes): 0.634 µM
COc1ccc(C(=O)/C=C(\O)C(F)(F)C(F)(F)F)cn1 — IC50 (Formate-nitrite transporter (FNT, Plasmodium ovale, UniProt A0A1D3TGZ2); L-lactate transport, inhibitor; yeast; pH 6.8, added: 14C-L-lactate 1 mM): 0.64 ± 0.12 µM
Cn1cc(C(=O)c2ccccc2F)cc1/C=C(\C#N)C(N)=O — IC50 (Ribosomal protein S6 kinase alpha-3, C-terminal kinase domain (RPS6KA3, Homo sapiens, UniProt P51812); enzyme activity, inhibitor; 10 mM reduced glutathione, added: 0.1 mM ATP, peptide substrate): > 100 µM
CC(C)NCc1ccc(C[C@@H]2NC(=O)[C@@H](Cc3c[nH]c4ccccc34)NC(=O)[C@H](Cc3ccccc3)NC(=O)[C@H](NC(=O)[C@@H](N)Cc3ccc(Cl)cc3)CSSC[C@@H](C(=O)N[C@@H](Cc3ccc4ccccc4c3)C(N)=O)NC(=O)[C@H](Cc3ccc(O)c(I)c3)NC2=O)cc1 — IC50 (Somatostatin receptor type 3 (SSTR3, Homo sapiens, UniProt P32745); ligand displacement, radioligand; cell membranes): > 1 µM
Clc1ccccc1NCc1cn(-c2ccccc2)nc1-c1ccc(OCc2ccccc2)cc1 — IC50 (Prostaglandin G/H synthase 1 (PTGS1, Homo sapiens, UniProt P23219); enzyme activity, inhibitor, absorbance): 98.6 µM
CNC(=O)C1CCN(c2ccccc2NC(=O)c2ccc(-c3cc(O)ccc3C)c(C)c2)CC1 — IC50 (Ephrin type-A receptor 4 (EPHA4, Homo sapiens, UniProt P54764); target engagement in cells, BRET): 0.0056 µM
Nc1nc(Cl)nc2c1ncn2Cc1cc(OCC(F)F)cc(OC(F)F)c1 — IC50 (High affinity cGMP-specific 3',5'-cyclic phosphodiesterase 9A (PDE9A, Homo sapiens, UniProt O76083); enzyme activity, inhibitor): > 10 µM
Cc1cc(C)c2ccc(C3=C(O)c4ccccc4C3=O)nc2c1O — IC50 (CD38; enzyme activity, inhibitor, fluorescence): 5.2 µM
CN(C)c1ccc2c(c1)C(=O)N([C@H](CS)C(=O)O)C2=O — IC50 (Metallo-beta-lactamase type 2 (Serratia marcescens, UniProt P52699); enzyme activity, inhibitor; pH 7.0, added: chromacef 25 µM): 1.5 ± 0.2 µM
CC1(C)C2CCC3(CC(c4ccccc4)c4c(O)c(C=O)c(O)c(C=O)c4O3)C1C2 (single isomer, unassigned; (+)) — IC50 (ATP-dependent 6-phosphofructokinase, muscle type (PFKM, Homo sapiens, UniProt P08237); enzyme activity, inhibitor; HEK293T cell lysate; apparent): 14.4 µM
O=C(NOCCO)c1cc2snnc2c(F)c1Nc1ccc(I)cc1F — IC50 (PIM1; enzyme activity, inhibitor): 1.34 µM

Excerpt of the above:
CC(=O)NCCN(CC(=O)NCCN(CC(=O)NCCN(CC(=O)NCCC(N)=O)C(=O)C[C@@H](N)Cc1ccccc1)C(=O)C[C@@H](N)CCCNC(=N)N)C(=O)C[C@@H](N)CCCNC(=N)N — IC50 (HIV-1 TAR RNA; Tat/TAR complex displacement, FRET; room temperature, added: 10 nM Tat/TAR complex): 0.7 ± 0.1 µM
C[C@@H](c1ccn(Cc2ccc(Cl)cc2Cl)n1)[C@](O)(Cn1cnnn1)c1ccc(F)cc1F — IC50 (Cytochrome P450 2C19 (CYP2C19, Homo sapiens, UniProt P33261); enzyme activity, inhibitor; human, liver microsomes): 0.634 µM
COc1ccc(C(=O)/C=C(\O)C(F)(F)C(F)(F)F)cn1 — IC50 (Formate-nitrite transporter (FNT, Plasmodium ovale, UniProt A0A1D3TGZ2); L-lactate transport, inhibitor; yeast; pH 6.8, added: 14C-L-lactate 1 mM): 0.64 ± 0.12 µM
Cn1cc(C(=O)c2ccccc2F)cc1/C=C(\C#N)C(N)=O — IC50 (Ribosomal protein S6 kinase alpha-3, C-terminal kinase domain (RPS6KA3, Homo sapiens, UniProt P51812); enzyme activity, inhibitor; 10 mM reduced glutathione, added: 0.1 mM ATP, peptide substrate): > 100 µM
CC(C)NCc1ccc(C[C@@H]2NC(=O)[C@@H](Cc3c[nH]c4ccccc34)NC(=O)[C@H](Cc3ccccc3)NC(=O)[C@H](NC(=O)[C@@H](N)Cc3ccc(Cl)cc3)CSSC[C@@H](C(=O)N[C@@H](Cc3ccc4ccccc4c3)C(N)=O)NC(=O)[C@H](Cc3ccc(O)c(I)c3)NC2=O)cc1 — IC50 (Somatostatin receptor type 3 (SSTR3, Homo sapiens, UniProt P32745); ligand displacement, radioligand; cell membranes): > 1 µM
